Results from different studies.
Lines come from different studies, so protocols differ. ± marks the error that the study gave.
Organism: Salmonella typhimurium

Structure (SMILES)	assay	system	conditions	how to read	endpoint	value
CC(=O)N1CCC(C(=O)N2CCN3C(=O)c4cc(-c5ccccc5)ccc4NC(=O)C3C2)CC1 (stereo not drawn)	–	TA1537	1581 µg/plate	–	revertants per plate	10.5
Fc1ccc(C2=CCNCC2)cc1	SOS/umu test	TA1535/pSK1002	0.125 mg/mL, 4 h, with S9, full range	–	survival	105%
CC(C)N(C)N=O	mutagenicity, Ames plate incorporation	TA1535	500 µg/plate, 3 d, without S9, methanol	–	revertant colonies per plate	22.3 ± 8
OC(CCN1CC=C(c2ccc(F)cc2)CC1)c1ccc(F)c2ccccc12 (stereo not drawn)	SOS response, SOS/umu test	TA1535/pSK1002, TGA medium	0.001 mg/mL, 4 h, together with: rat liver S9	relative to: untreated	induction factor	1.4
O=NN1CCN(C2CCCC2)CC1	mutagenicity, Ames plate incorporation	TA100	500 µg/plate, 3 d, without S9, methanol	–	revertant colonies per plate	154 ± 3
O=[N+]([O-])c1ccc(N2CCN(CCC(O)c3ccc(F)cc3)CC2)c(C(F)(F)F)c1 (stereo not drawn)	SOS/umu test	TA1535/pSK1002, TGA medium	0.000488 mg/mL, 4 h, without S9	–	survival	111%
COc1cccc(-c2n[nH]c(SCc3ccccn3)n2)c1OC	Ames test, plate incorporation	TA100	0.50 mg/plate, with rat liver S9	–	revertant colonies per plate	104
N#C[C@@]1(n2ccc(N)nc2=O)O[C@H](CO)[C@@H](O)[C@H]1O	–	TA100	1.2 µM, without S9	relative to: control	viability	106%
CN(CC(C)(C)C)N=O	mutagenicity, Ames plate incorporation	TA100	5000 µg/plate, without S9, methanol	–	revertant colonies per plate	236 ± 40
Cc1cc(C(=O)NC(C)(C)COc2cccc3c2C(N)=NS(=O)(=O)N3)cc(C)n1	Ames test, initial	TA1537	1500 µg/plate	relative to: solvent control	revertant ratio	1.2
O=[N+]([O-])c1ccc(N2CCC(NCCC(O)c3ccc(F)c4ccccc34)CC2)c(C(F)(F)F)c1 (stereo not drawn)	genotoxicity, SOS/umu test	TA1535/pSK1002	0.002 mg/mL, 4 h, without S9, lower range	–	induction factor	0.6
CN(N=O)c1ccc(F)cc1	mutagenicity, Ames plate incorporation	TA98	2500 µg/plate, 3 d, without S9, methanol	–	revertant colonies per plate	24 ± 6

Repeated from above:
Structure (SMILES)	assay	system	conditions	how to read	endpoint	value
N#C[C@@]1(n2ccc(N)nc2=O)O[C@H](CO)[C@@H](O)[C@H]1O	–	TA100	1.2 µM, without S9	relative to: control	viability	106%
